Measurements pooled from the literature.
A part holds a random share of what one study measured. Changes are numbered by the printed parent chain.

Sample 1
Target: Ras GTPase-activating protein-binding protein 1, C-terminal RGG region (G3BP1, Homo sapiens, UniProt Q13283)
Chain of UniProt Q13283 (whole entry, looked up): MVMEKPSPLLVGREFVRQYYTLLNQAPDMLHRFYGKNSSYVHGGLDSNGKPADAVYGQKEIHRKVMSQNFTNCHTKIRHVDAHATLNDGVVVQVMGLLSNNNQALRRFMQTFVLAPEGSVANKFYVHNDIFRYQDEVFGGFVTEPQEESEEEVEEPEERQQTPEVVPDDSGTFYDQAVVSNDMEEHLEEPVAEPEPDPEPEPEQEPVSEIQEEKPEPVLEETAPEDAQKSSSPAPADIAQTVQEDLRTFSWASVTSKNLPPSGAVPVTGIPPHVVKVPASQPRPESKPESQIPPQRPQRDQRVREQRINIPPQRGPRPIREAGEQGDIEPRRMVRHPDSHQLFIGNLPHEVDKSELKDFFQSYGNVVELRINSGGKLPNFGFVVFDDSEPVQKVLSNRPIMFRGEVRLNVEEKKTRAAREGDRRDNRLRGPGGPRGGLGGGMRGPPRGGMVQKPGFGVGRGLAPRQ
Technique: RNA Bind-n-Seq
Form: RNA
Medium: in vitro
Tested at: 1 µM
Notes: whole 134-nt RNA, ends assumed
Together with: 150 mM KCl
Relative to: input library
Reading: higher = stronger binding
| Sequence | log2 enrichment |
| --- | --- |
| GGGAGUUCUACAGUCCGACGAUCCACAGACAACACGCACCCACACAGACACAGAGGGAAGGGGUUGGGAUGGGAAAAGGGUGCACAGCAGGGCGGGGUAGGACCCCAGCCCCUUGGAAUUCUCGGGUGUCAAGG | -0.228 |
| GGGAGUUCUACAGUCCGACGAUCCAAGUCCUGUGCUACACAUCGUAUGUACCGAAUCAAAUUUAAAUUUAAACCCAAAAAAGUAUUAUGUUACGCCGUUCGGAUCUGCACUUCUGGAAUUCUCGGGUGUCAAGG | -0.718 |
| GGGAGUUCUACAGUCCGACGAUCGCAGGAAGUAAAAACAAAUGGAAAUGCUUCGGAUAGUGGCAGGGGUGGGGGUUGCUAAGGAAAGGGUGUGAUGGGAGUGGGUAAAGAGUUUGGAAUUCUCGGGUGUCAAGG | 2.22 |
| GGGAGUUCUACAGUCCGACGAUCCAAGUCCUGUGCUACACAUCGUAUGUACCGAAUCGGGGAAAGGAAAGGAAAGGGGAAAGUAUUAUGUUACGCCGUUCGGAUCUGCACUUCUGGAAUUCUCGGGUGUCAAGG | -1.45 |
| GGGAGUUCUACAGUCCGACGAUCGUCCUGUGCUACACAUCGUAUGUACCGAAUCGGGGUUUUUUUGGGGAAAGGGGAGGGGAAAGUAUUAUGUUACGCCGUUCGGAUCUGCACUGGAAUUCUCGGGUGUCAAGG | 1.99 |
| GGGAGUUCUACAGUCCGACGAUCAAGUCCUGUGCUACACAUCGUAUGUACCGAAUCGGGAAAGGGAAAGGGUUUUUGGGAAAGUAUUAUGUUACGCCGUUCGGAUCUGCACUUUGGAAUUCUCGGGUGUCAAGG | 0.878 |
| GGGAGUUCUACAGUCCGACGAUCUCCUGUGCUACACAUCGUAUGUACCGAAUCGGGUUUUUUUGGGAAAAAGGGAAAAAGGGAAAGUAUUAUGUUACGCCGUUCGGAUCUGCAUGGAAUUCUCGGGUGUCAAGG | -0.807 |
| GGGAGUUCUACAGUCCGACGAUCCACAGACAACACGCACCCACACAGACACAGAGGGAAGGGGUUGGGAUGGGGACAGGGUGCACAGCAGGGCGGGGUAGGACCCUAGCCCCUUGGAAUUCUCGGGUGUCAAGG | -1.17 |
| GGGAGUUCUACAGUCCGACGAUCUCAAGUCCUGUGCUACACAUCGUAUGUACCGAAUCGGAAAGGAAAGGGAAAGGGAAAGUAUUAUGUUACGCCGUUCGGAUCUGCACUUCCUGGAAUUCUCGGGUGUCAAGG | -1.33 |
| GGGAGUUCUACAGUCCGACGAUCAAGUCCUGUGCUACACAUCGUAUGUACCGAAUCGGGCCCCGGGGCCCCGGCCCCGGAAAGUAUUAUGUUACGCCGUUCGGAUCUGCACUUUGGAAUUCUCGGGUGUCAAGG | -2.35 |
| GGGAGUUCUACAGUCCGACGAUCCAGUUUAAGAGGGGUUUCAUGCAAGGGCAUGUAAAUAGACAAGAAAAAGAAGAAAAAGAAGCAAUAUAUAAAGAACGUUGGCCAGAUUAUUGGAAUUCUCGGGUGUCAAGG | -1.1 |
| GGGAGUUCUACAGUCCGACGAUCUGUGCUACACAUCGUAUGUACCGAAUCGGGGUUUUUGGGGAAAAAAAGGGGAAAAAAAGGGGAAAGUAUUAUGUUACGCCGUUCGGAUCUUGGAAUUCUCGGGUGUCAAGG | 0.491 |
| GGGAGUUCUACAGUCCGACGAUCAGAUGAACAAGAGAACUGGGCAACCCAUGAUCCACAUCUACCUGGACAAGGAAACAGGAAAGCCCAAAGGCGAUGCCACAGUGUCCUAUGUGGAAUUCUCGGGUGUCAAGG | -2.35 |
| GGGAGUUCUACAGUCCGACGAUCAAGUCCUGUGCUACACAUCGUAUGUACCGAAUCGGGGAAAGGGGAGGGGUUUGGGGAAAGUAUUAUGUUACGCCGUUCGGAUCUGCACUUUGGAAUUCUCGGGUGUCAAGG | 2.16 |

Sample 2
Target: CREB3L3, bZIP domain (human)
Technique: DHFR protein complementation
Medium: yeast
Notes: single substitutions, most at no-binding floor
Relative to: wild-type JUN-FOS pair
Reading: higher = stronger binding
Starting sequence: JUN, bZIP domain (human); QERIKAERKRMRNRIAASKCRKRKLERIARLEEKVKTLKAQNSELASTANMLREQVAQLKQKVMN; partner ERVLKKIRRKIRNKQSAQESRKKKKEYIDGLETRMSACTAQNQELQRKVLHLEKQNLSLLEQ
| Variant | binding fitness [natural log] |
| --- | --- |
| E44C | -1.58 |
| L45D | -1.52 |
| I28K | -1.31 |
| M51T | -1.27 |
| V56N | -1.54 |
| T48F | -1.37 |
| A46T | -1.37 |
| E54W | -1.44 |
| L45I | -1.44 |
| S43H | -1.38 |
| L31P | -1.52 |
| L38R | -1.49 |
| K36F | -1.46 |
| M51C | -1.46 |
| K34L | -1.25 |
| Q41G | -1.52 |

Sample 3
Target: Histone acetyltransferase KAT6A, both winged helices, GST fusion (KAT6A, Homo sapiens, UniProt Q92794, residues 1-181)
Technique: protein binding microarray
Form: double-stranded DNA, one strand shown
Medium: in vitro
Tested at: not given
Notes: 8-mer, flanks averaged, mean of 2 arrays, mostly near background
Relative to: not given
Reading: higher = stronger binding
Construct (chain): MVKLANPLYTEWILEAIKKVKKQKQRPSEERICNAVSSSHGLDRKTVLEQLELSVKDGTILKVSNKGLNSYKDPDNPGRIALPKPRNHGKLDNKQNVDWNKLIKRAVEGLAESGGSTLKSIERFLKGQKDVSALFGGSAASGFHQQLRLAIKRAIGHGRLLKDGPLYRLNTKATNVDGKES
| Sequence | E-score |
| --- | --- |
| AGATGATC | -0.0333 |
| CACCATCC | -0.133 |
| TAGCTTGA | -0.106 |
| CCAAGAAA | -0.184 |
| ACATACGT | -0.0485 |
| ACTTGTGC | -0.106 |
| CACAGAAG | -0.106 |
| TCTATCCA | -0.058 |
| CCGCCGTA | 0.359 |
| GGCTAACC | 0.0204 |
| GTACCAAC | -0.0255 |
| CATCGTCG | 0.081 |
| AATCAAAG | 0.0334 |
| CTGGCGAA | -0.185 |
| ACGATCAA | -0.02 |
| AGCGCTAG | 0.155 |
| AGGCAATA | -0.163 |
| ACGGTTAA | 0.132 |
| AAGGGAAC | -0.092 |

Sample 4
Target: RING finger protein unkempt homolog, zinc fingers 1-6, GST-SBP tag (UNK, Homo sapiens, UniProt Q9C0B0, residues 30-357)
Chain of UniProt Q9C0B0 (30-357, looked up): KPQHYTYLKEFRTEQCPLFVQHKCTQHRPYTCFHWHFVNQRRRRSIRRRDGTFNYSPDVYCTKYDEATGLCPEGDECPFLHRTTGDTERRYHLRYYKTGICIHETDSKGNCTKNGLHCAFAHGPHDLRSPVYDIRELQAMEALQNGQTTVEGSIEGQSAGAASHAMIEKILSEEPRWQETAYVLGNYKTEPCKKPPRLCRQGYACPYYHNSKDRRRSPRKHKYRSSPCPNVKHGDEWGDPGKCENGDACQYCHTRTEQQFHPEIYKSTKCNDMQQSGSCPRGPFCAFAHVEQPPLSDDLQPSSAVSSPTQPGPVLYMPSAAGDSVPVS
Technique: RNA Bind-n-Seq
Form: RNA
Medium: in vitro
Tested at: not given
Notes: RNA with constant flanks, human and mouse sites, ends assumed
Relative to: input RNA pool
Reading: higher = stronger binding
| Sequence | bound/input enrichment [ratio] |
| --- | --- |
| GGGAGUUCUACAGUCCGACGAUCAAGAUAACUUCAAGGCAGGAAAAAAGGGUAUUUAAUGCUCUGUCAAGCACAUCAGCAAUCAUAGAUUACCUUACAGACCAUUAUGGCAUUUGACUAGACUUCCCAAAUAAUUUUAAUAUACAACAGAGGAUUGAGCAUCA | 1.78 |
| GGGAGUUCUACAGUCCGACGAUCAAGAGGGCGAACAUUCGACUUCCACCUGAAGUAAAUCGGAUAUUGUAUAUAAGAAAUUUGCCAUACAAAAUCACAGCUGAAGAAAUGUAUGAUAUAUUUGGGAAAUAUGGACCUAUUCGUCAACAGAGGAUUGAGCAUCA | 0.125 |
| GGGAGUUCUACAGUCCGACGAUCGAACUGGUGGACUACAUUACAAUAAGCAGAGGCUGUCUGACAGAGCAGACUUACCCUGAAGUAGUUAGAAUGGUAUCUUGCAAUAUAUUCAGAACUCUCCCUCCUAGUGACAGCAAUGAACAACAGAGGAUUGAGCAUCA | 0.567 |
| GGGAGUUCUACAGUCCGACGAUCCCCGUCUUGGCUUAUCCACUUUGACUCCUUUGAGCCGUUUGGAGGGGCGGUUUCUGGUAGUUGUGGCUUUUAUGCUUUCAAAGAAUUUCUUCAGUCCAGAGAAUUCCUCCUGGCAGCCCUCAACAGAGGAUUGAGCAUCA | 0.183 |
| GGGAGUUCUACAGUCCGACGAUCCUAUAAAGGCAGCGCCCCGGAGAGCUCUUGCGCGUCUUGUUCUUGCCUGGUGUCGGUGGUUAGUUUCUGCGACUUGUGUUGGGACUGCUGAUAGGAAGAUGUCUUCAGGAAAUGCUAAAACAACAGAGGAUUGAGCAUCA | 0.384 |
| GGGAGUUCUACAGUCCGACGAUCGAUGGCCGGCGCUACAUGAUGAUCGUGGACCCUGCCAUCAGCAGCGCAGGCCCUGCUGGGAGUUACAGGCCCUACGACGAGGGUCUGCGGAGGGGCGUGUUCAUCACCAACGAGACUGGGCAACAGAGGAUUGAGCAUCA | 0.136 |
| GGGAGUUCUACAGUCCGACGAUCCUGGUGGCUGAGGUCCGCAUCGGUGACAGGGACCCCAUGCCUCUACCUGUGCCCAGCCUGUUUCCCCGCCUCAGGGCCUGGAGGACAGGAAAGACAGUUUCUCCACAGUCCCAUGCAUCUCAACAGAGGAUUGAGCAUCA | 0.105 |
| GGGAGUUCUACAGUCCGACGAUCCUUUCCACCAGAAAGCUAUCUCUGGGCUAUAUUUCUUUCUACCUUUUUAGAAAUCAGUCCUUUUGUUAAGUUGUUUAUAACUCCAAUAGAAAAAUAAGGCAUGGUCGGUGGGUAGGGAUGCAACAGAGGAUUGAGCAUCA | 3.98 |
| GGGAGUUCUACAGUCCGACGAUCGCUAUAAAAUGUGUUGCUUGUAAUAAUCCUGUUACACCAAGUUUAUCUACUGCACCUCCCUCUUUUAAGUUUGGUACCUCAGAGAUGAGUAAGCCUUUCAGGAUUGGAUUUGAGGGUAUGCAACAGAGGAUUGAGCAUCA | 0.408 |
| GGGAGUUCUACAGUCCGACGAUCGCUUUUCAAGCCAAGGAUGUGGAAGGAUCUACUUCUCCUCAAAUAGGAGAUAAGGUUGAAUUUAGUAUUAGUGACAAACAGAGGCCUGGACAGCAGAUUGCAACUUGCGUGAGACUUUUACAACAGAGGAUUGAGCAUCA | 4.84 |
| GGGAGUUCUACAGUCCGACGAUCGACAUUAUCAAGUUUCUGCAGGAUCACGGUUCAGAUUCGUUUCUUGCAGAGCAUAAAUUACUGGGAAACAUCAAAAAUGUUGCCAAGACUGCUAAUAAGGACCAUUUGGUUAAUGCCUAUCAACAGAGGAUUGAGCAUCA | 0.132 |

Sample 5
Target: CCNF, cyclin fold, Cln2 fusion (human)
Technique: yeast growth competition, sequencing
Medium: yeast
Notes: strong parent motif
Relative to: not given
Reading: higher = stronger binding
Starting sequence: RBL2 docking peptide (human); STTRRRLFVENDS
| Variant | normalised enrichment score |
| --- | --- |
| R4T | 2.74 |
| D12T | 7.99 |
| T3V | 10.1 |
| R5E | -0.522 |
| R5D | 0.294 |
| S13R | 7.94 |
| R5A | 0.182 |
| N11I | 8.6 |
| S13Q | 7.18 |
| F8D | 2.32 |
| E10M | 7.91 |
| V9Q | 7.9 |
| L7V | 0.65 |
| R6K | 8.61 |
| L7E | 0.302 |
| V9C | 9.37 |
| R4Q | 5.86 |
| T3K | 1.04 |
| F8T | 1.17 |
| S1I | 7.84 |
| S1H | 7.5 |
| E10S | 7.98 |
| S1N | 7.66 |
| T3D | 0.918 |
| F8N | 1.73 |

Single results of other studies
| Substance | target | assay | system | setting | scale | measurement | result |
| --- | --- | --- | --- | --- | --- | --- | --- |
| PhoQ, residues 284 288 289 292 302 303 NLMGRA | PhoP, residues 12 14 15 18 19 SGWQI (Escherichia coli, UniProt P23836) | Sort-seq, measured: YFP reporter | E. coli | PhoQ-PhoP variant library, together with: 10 µM Mg2+ | relative to: high Mg2+ state, higher = stronger signaling | fold induction | 6.82 |

For quick reference, copied from above (sample 5):
| Variant | normalised enrichment score |
| --- | --- |
| T3V | 10.1 |
| R5E | -0.522 |
| R5D | 0.294 |
| S13R | 7.94 |
| R5A | 0.182 |
| N11I | 8.6 |
| S13Q | 7.18 |
| F8D | 2.32 |
| E10M | 7.91 |
